Measured values pooled from the literature.
Protocols differ between the studies behind these lines. ± gives the spread as reported.

Compound	assay	system	conditions	how to read	endpoint	value
[2H]C([2H])([2H])NC(=O)c1ccc(N2C(=S)N(c3ccc(C#N)c(C(F)(F)F)c3)C(=O)C2(C)C)cc1F		human, plasma	oral, 80 mg, fasted, single dose		CL/F	247 ± 54 mL/h
CCCCC/C=C/C=C/C(=O)NCC(C)C		rat plasma	4000 ng/mL, 48 h, 4 °C, short-term storage high QC	relative to: nominal concentration	relative error	3.75%
COCC1CN(C2CCN(c3cc(OC)c(Nc4ncc(Br)c(Nc5ccc6c(c5P(C)(C)=O)OCCO6)n4)cc3C)CC2)C1		human	oral, dose not given, sample A patients, any grade		patients with loss of appetite	33.3%
Nc1ncnc2c1nc(-n1nnc3c1CCC1C(CO)C1CC3)n2C1OC(CO)C(O)C1O (mixture of isomers)	frequency-domain fluorometry	methanol			average fluorescence lifetime	0.7 ns
CS(=O)(=O)c1cc(Cl)cc(-c2cc(Cl)c(Cl)cc2Cl)c1Cl		whole cow milk	mean of all doses	relative to: total added	distribution into milk fat	> 80%
COc1ccc(CNC[C@@](O)(COCc2ccc(OC)cc2)[C@@H]2CC[C@@H](C)C[C@H]2OCc2ccc(OC)cc2)cc1	PAMPA-GI	phosphatidylcholine-cholesterol membrane	500 µM, 4 h, pH 6.5, 37 °C, 5% DMSO		permeability	37.4 ± 3.5 ×10⁻⁶ cm/s
CC(C)C[C@H](NC(=O)[C@H](CCCCN)NC(=O)CNC(=O)[C@H](CC(C)C)NC(=O)[C@@H](NC(=O)[C@@H]1CSSC[C@H](N)C(=O)N[C@@H](CO)C(=O)N[C@@H](CC(N)=O)C(=O)N[C@@H](CC(C)C)C(=O)N[C@@H](CO)C(=O)N[C@@H]([C@@H](C)O)C(=O)N1)C(C)C)C(=O)N[C@@H](CO)C(=O)N[C@@H](CCC(N)=O)C(=O)N[C@@H](CCC(=O)O)C(=O)N[C@@H](CC(C)C)C(=O)N[C@@H](Cc1c[nH]cn1)C(=O)N[C@@H](CCCCN)C(=O)N[C@@H](CC(C)C)C(=O)N[C@@H](CCC(N)=O)C(=O)N[C@H](C(=O)N[C@@H](Cc1ccc(O)cc1)C(=O)N1CCC[C@H]1C(=O)N[C@@H](CCCNC(=N)N)C(=O)N[C@H](C(=O)N[C@@H](CC(N)=O)C(=O)N[C@H](C(=O)NCC(=O)N[C@@H](CO)C(=O)NCC(=O)N[C@H](C(=O)N1CCC[C@H]1C(N)=O)[C@@H](C)O)[C@@H](C)O)[C@@H](C)O)[C@@H](C)O	ELISA	hairless Sprague-Dawley rat, male, serum	intranasal, 3 µg		AUC	0.000307 ± 0.000242 µg·h/mL
CN(C)Cc1ccc([C@H]2C[C@@]3(C)[C@@H](CC[C@@]3(O)C(F)(F)C(F)(F)F)[C@@H]3CCC4=CC(=O)CCC4=C32)cc1		human liver microsomes	100 % absorption assumed		maximal oral bioavailability	98%
O=C([O-])CN1CCN(CC(=O)[O-])CCN(CC(=O)NCCc2ccc3c(c2)C2C=CCC2C(c2cc4c(cc2Br)OCO4)N3)CCN(CC(=O)[O-])CC1.[111In+3] (centres unmarked)		mice with Hec50 tumour xenograft, heart	2 h, together with: G-1 5 µg blocking		tissue uptake	0.19 ± 0.03 %ID/g
CCCC[C@H](NC(=O)CNC(=O)CNC(=O)CN1CCN(CC(=O)O)CCN(CC(=O)O)CC1)C(=O)N[C@H]1CC(=O)NCCCC[C@@H](C(N)=O)NC(=O)[C@H](Cc2c[nH]c3ccccc23)NC(=O)[C@H](CCCNC(=N)N)NC(=O)[C@@H](Cc2ccccc2)NC(=O)[C@H](Cc2c[nH]cn2)NC1=O [copper-64 labelled]		female C57 mouse, B16/F1 melanoma	intravenous, 0.037 MBq, 0.5 h	relative to: tumour over lung	uptake ratio	6.1
COc1ccc(/C=C/c2ccc(-c3ccc(C)cn3)nc2)cc1	TCSPC	MeCN			radiative decay rate constant	0.47 ns⁻¹
Cn1c(=O)oc2ccc(-c3ccc(CC(C#N)NC(=O)C4CNCCCO4)c(F)c3)cc21 (centres unmarked)	measured: blood triglycerides increased	human	15 mg single dose, fasted		subjects with TEAE	33.3%
O=C(CCc1ccc(CNC(C(=O)OC2CCCC2)C2CCCCC2)cn1)NO (centres unmarked)		human	20 mg, single dose, geometric mean		CL/F	499000 mL/h
CC(=O)N[C@H](C)c1cc(Cl)ccc1Cn1c(=S)[nH]c(=O)c2[nH]ccc21		Sprague-Dawley rat, female, plasma	oral, 125 mg/kg/day	relative to: rat over human 10 mg	exposure ratio	1
COC(=O)C(c1ccccc1Cl)N1CCC(SCC(=O)c2cccc(OC)c2)C(=CC(=O)O)C1 (mixture of isomers)		feline citrate plasma	100 ng/mL, 1 weeks, room temperature		deviation from nominal concentration	-20%
CCCC[C@H](NC(C)=O)C(=O)N[C@H]1CC(=O)NCCCC[C@@H](C(=O)N[C@@H](C(=O)N2CCC[C@@H]2C(N)=O)C(C)C)NC(=O)[C@H](Cc2c[nH]c3ccccc23)NC(=O)[C@H](CCCN=C(N)N)NC(=O)[C@@H](Cc2ccc3ccccc3c2)NC(=O)[C@@H]2CCCN2C1=O		Beagle dog, both sexes, plasma	subcutaneous, once daily, 2.25 mg/kg, day 28		half-life	3.7 ± 0.5 h

Compound	assay	system	conditions	how to read	endpoint	value
COc1cc2c(cc1OC)CN(CCCCn1ccc3cc(OCC[18F])ccc31)C2		male ICR mice	intravenous, 280 kBq, 2 min post-injection		muscle uptake	5.6 ± 0.91 %ID/g
CC(C)(O)c1ncc([S@](N)(=O)=NC(=O)Nc2c3c(cc4c2CCC4)CCC3)s1		human, plasma	oral, 100 mg, single dose, fed, healthy volunteers		Cmax	7680 ng/mL
CC/C=C\C/C=C\C/C=C\C/C=C\C/C=C\CCCCOC(CC)C(=O)O (centres unmarked)	[14C] label	male Wistar rat, subcutaneous fat	oral, 100 mg/kg, 4 h		radioactivity concentration	25.3 µg equiv/g
COC1C=COC2(C)Oc3c(C)c(O)c4c(c3C2=O)C2=NC3(CCN(CC(C)C)CC3)NC2=C(NC(=O)C(C)=CC=CC(C)C(O)C(C)C(O)C(C)C(OC(=O)Nc2cnccn2)C1C)C4=O (centres unmarked)		CD-1 mouse female, plasma	oral, 10 mg/kg		fAUC/MIC ratio	89
CN1CCC[C@]1(C)/C=C/S(=O)(=O)NC(=O)Nc1c2c(cc3c1CCC3)CCC2		human, plasma	oral, 250 mg, single dose, healthy volunteers		AUC(0-inf)	247 µg·h/mL
COc1cc(NC(C)=O)c2c(c1O)-c1c(OC)c(OC)cc3c1C(C2)N(C)CC3 (centres unmarked)		rat kidney homogenate	0.5 µg/mL, 24 h, room temperature, post-preparative storage		remaining compound	90.6 ± 1.6%
C=C(c1ncc(C(=O)O)cn1)c1cc2c(cc1C)C(C)(C)CCC2(C)C		Sprague-Dawley rat, male	oral, 100 mg/kg, 9 h, sesame oil vehicle		blood cholesterol	73 ± 10.7 mg/dL
CC(C)[C@H](NC(=O)[C@@H]1CCCN1C(=O)[C@H](CCCNC(=N)N)NC(=O)[C@H](CS)NC(=O)[C@H](Cc1c[nH]c2ccccc12)NC(=O)[C@H](CCCNC(=N)N)NC(=O)[C@@H](Cc1ccccc1)NC(=O)[C@H](Cc1c[nH]cn1)NC(=O)[C@H](CCC(=O)O)NC(=O)[C@H](CS)NC(=O)[C@H](CS)NC(=O)CNC(=O)[C@@H]1CC(=O)N[C@@H](CCCNC(=N)N)C(=O)NCC(=O)N[C@@H](CC(=O)O)C(=O)N[C@H](Cc2ccc(O)cc2)C(=O)N1)C(N)=O [technetium-99m labelled]		C57 mice B16/F1 melanoma female, urine	iv, 0.037 MBq, 0.5 h		excretion	38.3 ± 8.9%
CC(C)(F)CC(NC(c1ccc(-c2ccc(S(C)(=O)=O)cc2)cc1)C(F)(F)F)C(=O)NCC#N (centres unmarked)	LC-MS UV trace	aqueous buffer	concentration not given, 23 h, pH 7.5, 37 °C, together with: cysteine 10 mM		cysteine adduct formation	91%
CCCC[C@@H]1NC(=O)[C@@H](NC(=O)[C@H](CCC(=O)O)NC(=O)CNC(=O)CN2CCN(CC(=O)O)CCN(CC(=O)O)CCN(CC(=O)O)CC2)CCCCNC(=O)C[C@@H](C(N)=O)NC(=O)[C@H](C(C)C)NC(=O)[C@@H]2CCCN2C(=O)[C@H](CCCNC(=N)N)NC(=O)CNC(=O)[C@H](Cc2c[nH]c3ccccc23)NC(=O)[C@H](CCCNC(=N)N)NC(=O)[C@@H](Cc2ccccc2)NC(=O)[C@H](Cc2c[nH]cn2)NC(=O)[C@H](CCC(=O)O)NC1=O [gallium-67 labelled]		C57 mice, B16/F10 lung metastases	intravenous, 0.037 MBq, 4 h		urine excretion	88.1 ± 1.12%
CC[C@H](C)[C@@H]1NC(=O)[C@@](C)(NC(=O)[C@H](CCCNC(=N)N)NC(=O)[C@H](CC(C)C)NC(=O)[C@]2(C)CCCC=CCCC[C@](C)(NC(C)=O)C(=O)N[C@@H](CC(C)C)C(=O)N[C@@H](CCC(N)=O)C(=O)N2)CCCC=CCCC[C@@](C)(C(=O)N[C@@H](CC(C)C)C(=O)N[C@@H](Cc2ccc3ccccc3c2)C(=O)NCCC(=O)NCCC(N)=O)NC(=O)[C@H](CCCNC(=N)N)NC(=O)[C@H](CCC(N)=O)NC1=O		BALB/c mice	intravenous, 30 mg/kg		terminal half-life	7.03 h
CC(C)c1cnc(-c2cc(Cl)ccc2F)cc1Nc1ccncc1C(=O)NC(CO)CO		patients, phase I monotherapy	oral, dose not given, grade 3		patients with anaemia	9.5%
C[C@H](Oc1cc(-c2cnn(C3CCN(CC[18F])CC3)c2)cnc1N)c1c(Cl)ccc(F)c1Cl	PET imaging	nude mouse, muscle	iv, 10 min post injection		tracer uptake	2.3 ± 0.8 %ID/cc
CC12CC(c3ccc(S(C)(=O)=O)cc3)C3=C4CCC(=O)C=C4CCC3C1CCC2(O)C(F)(F)C(F)(F)F (centres unmarked)		human, plasma	intravenous, 15.7 µg		Vd	~360 L
COC(=O)c1ccc(-c2cn(Cc3cc(Cl)ccc3O[11CH3])nn2)cc1		C57BL/6 mouse, muscle	dose not given, 2 min		radioactivity	0.51 %ID/cc
C[C@H]1NSc2nc(=O)c3[nH]ccc3n2Cc2ccc(Cl)cc21		Sprague-Dawley rat, both sexes, plasma	oral, 125 mg/kg/day	relative to: rat over human clinical doses	exposure ratio	≥ 36
